Measurements collected from several papers.
Parts stem from different laboratories: compare values within a part only. Substitutions count along the parent as printed.

Set 1
Target: CCNE2, cyclin fold, Cln2 fusion (human)
Method: yeast growth competition, sequencing
Sample: yeast
Setting: weak parent motif
Reference: not given
Reading: higher = stronger binding
Starting sequence: SGO1 docking peptide (human); PLAKRALKYTDEK
| Variant | normalised enrichment score |
| --- | --- |
| L7A | 0.0901 |
| K8A | 0.294 |
| R5A | 0.0771 |
| Y9A | 0.298 |
| D11A | 0.472 |

Set 2
Target: ABI1, truncated, D143A, DHFR fusion (Arabidopsis thaliana)
Method: DHFR PCA, deep sequencing
Sample: yeast
Setting: methotrexate growth selection, single substitutions
Added: (+)-ABA 0.11 µM
Reference: wild-type fitted maximum
Reading: higher = stronger binding
Starting sequence: PYL1, truncated, DHFR fusion (Arabidopsis thaliana); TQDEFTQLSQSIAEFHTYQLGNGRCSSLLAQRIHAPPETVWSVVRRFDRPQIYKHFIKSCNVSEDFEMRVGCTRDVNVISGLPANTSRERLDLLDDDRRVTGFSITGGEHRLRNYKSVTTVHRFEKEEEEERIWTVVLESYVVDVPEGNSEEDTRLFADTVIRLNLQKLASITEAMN; partner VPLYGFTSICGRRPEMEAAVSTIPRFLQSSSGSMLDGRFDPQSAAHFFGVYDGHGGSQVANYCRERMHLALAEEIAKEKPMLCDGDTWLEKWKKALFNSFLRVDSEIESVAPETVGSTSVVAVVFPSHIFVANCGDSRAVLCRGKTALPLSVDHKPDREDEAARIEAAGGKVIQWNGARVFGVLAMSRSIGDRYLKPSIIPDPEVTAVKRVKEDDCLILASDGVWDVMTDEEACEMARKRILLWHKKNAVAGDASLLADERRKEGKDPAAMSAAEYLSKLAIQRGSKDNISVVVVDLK
| Variant | relative binding score |
| --- | --- |
| R49Y | -3.09% |
| D96L | -4.64% |
| S27N | 45.9% |
| Q7A | 42.3% |
| H110A | 28.4% |
| L8N | -3.39% |
| L112E | -4.29% |
| D95H | -11.7% |
| S104D | -7.28% |
| V121L | 9.27% |
| S63M | 3.93% |
| E151C | 25.1% |
| V44G | -1.3% |

Set 3
Target: Sal-like protein 4, full length isoform A (SALL4, Homo sapiens, UniProt Q9UJQ4, residues 1-1053)
Sequence of UniProt Q9UJQ4 (whole entry, looked up): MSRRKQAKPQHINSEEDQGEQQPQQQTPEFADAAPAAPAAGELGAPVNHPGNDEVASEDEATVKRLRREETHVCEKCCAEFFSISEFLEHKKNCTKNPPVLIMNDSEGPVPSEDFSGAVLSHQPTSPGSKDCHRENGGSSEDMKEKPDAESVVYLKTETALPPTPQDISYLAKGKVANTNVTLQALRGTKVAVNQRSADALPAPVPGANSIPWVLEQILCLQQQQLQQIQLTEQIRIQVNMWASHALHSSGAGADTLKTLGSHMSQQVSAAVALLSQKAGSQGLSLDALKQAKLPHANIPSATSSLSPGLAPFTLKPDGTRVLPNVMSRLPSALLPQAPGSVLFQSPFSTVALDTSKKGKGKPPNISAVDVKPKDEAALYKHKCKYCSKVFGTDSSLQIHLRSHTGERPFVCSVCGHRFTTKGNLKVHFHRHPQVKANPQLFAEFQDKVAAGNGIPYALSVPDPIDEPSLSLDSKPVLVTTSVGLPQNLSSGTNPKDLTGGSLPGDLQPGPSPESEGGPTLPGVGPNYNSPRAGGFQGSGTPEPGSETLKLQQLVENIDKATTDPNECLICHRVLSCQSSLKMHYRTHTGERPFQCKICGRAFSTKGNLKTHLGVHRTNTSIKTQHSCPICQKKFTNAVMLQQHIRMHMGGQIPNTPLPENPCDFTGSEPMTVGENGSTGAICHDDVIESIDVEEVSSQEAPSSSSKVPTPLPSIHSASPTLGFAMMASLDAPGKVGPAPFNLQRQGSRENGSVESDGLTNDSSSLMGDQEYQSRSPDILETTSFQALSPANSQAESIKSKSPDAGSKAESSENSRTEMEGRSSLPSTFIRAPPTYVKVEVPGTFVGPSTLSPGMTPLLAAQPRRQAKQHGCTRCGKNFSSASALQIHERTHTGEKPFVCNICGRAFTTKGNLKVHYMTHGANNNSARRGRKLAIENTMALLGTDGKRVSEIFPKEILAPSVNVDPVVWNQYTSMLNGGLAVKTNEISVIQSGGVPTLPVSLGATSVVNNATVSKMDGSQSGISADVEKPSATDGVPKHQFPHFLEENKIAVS
Method: universal PBM
Form: double-stranded DNA, one strand shown
Sample: in vitro
Tested at: 600 nM
Setting: 8-mer, flanks averaged, mean of replicates
Reading: higher = stronger binding
| Strand | E-score |
| --- | --- |
| TAAGTCAA | 0.19 |
| GACACGCA | -0.0711 |
| AAGGAAAA | 0.228 |
| ATGTTCTC | 0.1 |
| GCACGGCC | -0.336 |
| ATCTGGAA | 0.147 |
| TCGTAGCA | 0.152 |
| CCAAATGA | 0.226 |
| TCAACGCA | 0.0362 |
| GTCTTAAC | 0.0176 |
| AAATTACG | 0.241 |
| GGGGATGA | -0.24 |
| GAACCAAC | -0.0278 |
| GTCCCCGA | -0.259 |
| CGAAGAAA | 0.0894 |
| ACTCATCA | -0.00756 |
| AGATCTAA | 0.0485 |
| ACTCCACA | 0.00728 |
| AAAGTTTC | 0.077 |
| CCTACCGA | -0.036 |
| ATTTAGAG | 0.13 |
| AAAAGGGA | 0.0979 |
| ACCATTAG | 0.134 |
| GAGAGTGA | -0.0344 |
| AATCCGTA | 0.0298 |

Set 4
Target: Centromere-binding protein 1, full length, N-terminal tag (CBF1, Saccharomyces cerevisiae, UniProt P17106, residues 1-351)
Sequence of UniProt P17106 (whole entry, looked up): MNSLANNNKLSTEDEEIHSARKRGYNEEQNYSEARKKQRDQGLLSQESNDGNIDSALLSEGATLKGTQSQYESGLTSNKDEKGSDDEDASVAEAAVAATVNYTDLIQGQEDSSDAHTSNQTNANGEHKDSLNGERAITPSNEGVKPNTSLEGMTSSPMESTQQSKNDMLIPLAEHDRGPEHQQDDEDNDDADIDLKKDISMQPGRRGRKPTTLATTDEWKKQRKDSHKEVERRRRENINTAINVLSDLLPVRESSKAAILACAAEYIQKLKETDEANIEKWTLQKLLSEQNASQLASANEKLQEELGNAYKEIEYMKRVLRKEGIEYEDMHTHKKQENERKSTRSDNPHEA
Method: protein-binding microarray
Form: double-stranded DNA, one strand shown
Sample: in vitro
Tested at: 0.8 µM
Setting: whole 60-bp probe, no competitor
Reading: higher = stronger binding
Constant ends, left off below: … GTCTTGATTCGCTTGACGCTGCTG
| Strand | fluorescence intensity |
| --- | --- |
| CTAGCGTCGTTTGCTTACGTGATTGTCATGTGCTTC | 1250 a.u. |
| CTAGGTGGGTGCCATCACCTCTCGTGATATACATTC | 1410 a.u. |
| GAATTGAAAATCGTACACGTTATATCAACGCTATAG | 566 a.u. |
| GAAAGGGAAAGTACACGTGAAATTTTAAACTACTAG | 2620 a.u. |
| TGTACGAAGCTATATCAGCAGACTATAGTAGTTAGG | 600 a.u. |
| CCTAACTACTATAATCACAAAATATAGCTTCGTACA | 522 a.u. |
| GAAAAAAATGGAACGGTCGTGGCACATGTGGGATAG | 750 a.u. |
| TGTACGAAGCTATATGTGGTCGCTATAGTAGTTAGG | 491 a.u. |
| CTACCGAAACGGTGACAGCTGAGTTCGCTCAAATTC | 486 a.u. |
| CTAGCCATTTCGCTTCTGATGCTTTAGCTGATGTTC | 483 a.u. |
| GAAGTTTTTAGTCTTCACGTTCATGACCGCGTGTAG | 755 a.u. |
| GAAAACAAGATAGAGCACGTTGGGTCAAATTCTTAG | 605 a.u. |
| GAATATATATTAATGCACATGGCTCTGTTGTATTAG | 642 a.u. |
| CTATATAATACTAATCACGCATTGCAACTTCACTTC | 737 a.u. |
| CTATTTTATTAATGTCAGCTGAACCTCGTATTTTTC | 815 a.u. |
| CTACGTTCGTGCAATCTCATGATAGAAAAAGGGTTC | 641 a.u. |
| GAACCCAGCAGAGGTCATCACGTAGCTACAGGATAG | 528 a.u. |
| GAATCCCGGTAGTTCCACGCGGCCGATACCTCGTAG | 479 a.u. |
| CTAAAAAATCCAGCTGATGTTTGTTTCCTTTTCTTC | 492 a.u. |
| GAACTGTTTTCTGTGCGCACTCTACGCTGATCGTAG | 491 a.u. |

Set 5
Target: Hepatocyte nuclear factor 3-alpha (Foxa1, Mus musculus, UniProt P35582, residues 1-468, full length assumed)
Method: EMSA with sequencing
Form: double-stranded DNA, one strand shown
Sample: in vitro
Tested at: 10 and 20 nM
Setting: whole designed probe, mean of two concentrations, ends assumed
Reference: negative control set to 0
Reading: higher = stronger binding
Constant ends, left off below: GTGAGCGGTGCCCATTGATGGGGAAC … TTTCACTGGGATCGTGGGGAC
Target sequence (chain): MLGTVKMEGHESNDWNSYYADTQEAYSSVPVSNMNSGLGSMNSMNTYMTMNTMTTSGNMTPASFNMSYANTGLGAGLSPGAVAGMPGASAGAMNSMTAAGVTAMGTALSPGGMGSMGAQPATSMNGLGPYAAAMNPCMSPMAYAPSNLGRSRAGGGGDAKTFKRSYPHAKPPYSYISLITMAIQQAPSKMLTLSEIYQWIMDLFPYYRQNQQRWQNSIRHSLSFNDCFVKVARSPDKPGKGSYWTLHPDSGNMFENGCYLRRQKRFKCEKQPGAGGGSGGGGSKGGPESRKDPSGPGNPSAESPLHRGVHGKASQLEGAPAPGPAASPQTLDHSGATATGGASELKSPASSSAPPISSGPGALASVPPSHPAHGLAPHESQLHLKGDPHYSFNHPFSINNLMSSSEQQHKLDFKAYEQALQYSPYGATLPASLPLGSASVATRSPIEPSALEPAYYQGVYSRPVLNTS
| Strand | normalised bound fraction [ratio] |
| --- | --- |
| GCTTAAACCAATAAAACATTTATCTCACAGTTTCTGTGGGTCAGGAATCCAGGAGTGGCTTTGCTGGGTGGTTCTGCCTCAGGGTATCTGCCCTGTTTACAGTCATGCTGTTGGCTGGGCTGCAGAGGCTGGAAGCCTCTTTGGGGCCAGATGATTTGTTTCTGAGCTTGTTCATGTGGTTGTGGTCAGAAGG | 0.181 |
| AACTAACTTCTAAAGCTGTTTTGCTCTTCTTTCCTTTTGTCTTTCCTTATCATTTCCTTAAAATGACCTCCTAGATGACCTCCTAGATCCTGCTTGTTTACTTTAAACATTTTCAAGTTGGAATTCAGGATTGACTTCACTTCATTGTTCCCTGAGCAGCTGCCATCCCTGTTCATTTCAGCTTTAGCATTTA | 0.402 |
| TCGGCCAGCCTGGCTTCTGCGCCCCGCCAGGAGGTCGCGGAGCGGAGCGCGGCCAGGAAGTGAGCTGAGAGTGACAGCATGACTCATTCTGTTTGTTTATTCATGTCACATTCTCTCCACACACTGGCTCTTCTTTCTTTCGGGAGGAGGGGAGAAAGGAGCGGGAGGGCGGGCGGGCAGGGGAGAGGCAGGC | 0.404 |
| TATTTAATCTAGGCTACTGTGAATAGGAGAAAAATAGTTGCTAAAAGATGGCAGAGTTCACTCAATCCAATGAAATTTTAAAACATCTCAAAGTAATCTAAGCCAGAGAGTTCATCAGCTAATGCTGCGTCATAAGGTTATCTGCATATTAGGTGATCCCAGTGGCTACAGAACTGACTTTCAGAAACACTAG | -0.0135 |
| ATCTTCCCCCTCTTCCTTGCCCCACCAGCTCACCTTCCCGGGTCAAAGTAAACAAGTGTTTACTTTGAAGCCGGCATTCGTTAACCCTCTTCACGCGCATACTGCTGTTTACTTTGGATCTAACATGGTCCTTTGGCGACGCCAGGCTCCGGGAGAGCAAAGCACCGTGTCAGGGCCATGATCCGGGGTGGCC | 0.513 |
| AATATTTCAAACACTACGTACCCCAACTGACATTTGAGTAGCAGTTAAGTTCTTGGAACGCTGCCATGTTACGTAACTTTGATCTAGCTCATTGTAAACAGGATGAAATAGGGCAGTTAAAAGACTAATGGTCAGTGAAATCTACAACAGGAATGGAAAGAATTTTCCCCTTAAAAATTTGGAAATCCTTATT | -0.039 |
| ATCTTCCCCCTCTTCCTTGCCCCACCAGCTCACCTTCCCGGGTTATTTGCAGATAGGAAAATAAATAAAGCCGGCATTCGTTAACCCTCTTCTGGCGCAAACTGCTGTTTGCTCTGGATGAATCATGGTCCTTTGGCGACGCCAGGCTCCGGGAGAGCAAAGCACCGTGTCAGGGCCATGACTGCGGGTGGCC | 0.331 |
| ATCTTCCCCCTCTTCCTTGCCCCACCAGCTCACCTACGGGGGTTATTTGCAGATAGGAAAATAAATAAAGCCGGCATTCGTTAACGCAGTTCACGCGCATACTGCTGTTTGCTCTGCATGAATCATGGTCCTTACGCGAGGCGTGGCTCCGGGAGAGCAAAGCACCGTGTCAGGCGCATGATCCGGGGTGGCC | 0.361 |

Repeated from above (set 2):
| Variant | relative binding score |
| --- | --- |
| E151C | 25.1% |
| S63M | 3.93% |
| V121L | 9.27% |
| V44G | -1.3% |
| L112E | -4.29% |
| D96L | -4.64% |
| H110A | 28.4% |
| D95H | -11.7% |
| S27N | 45.9% |
